Measurements collected from several papers.
Several values in a cell are separate wells, animals, samples, runs or records. Numbers after ± are the reported error.

O=C1OCC(NCCc2ccc(Cl)cc2)N1/N=C/c1ccc([N+](=O)[O-])o1 (stereo not shown)  IC50 (HepaRG; cell growth or viability, MTT; 24 h): > 100 µM
CCCCn1cc(C(=O)O)c(=O)c2cc(F)c3c(nnn3-c3cccc(OC)c3)c21  IC50 (T47D; cell growth, SRB; 72 h): 61.2 ± 6.21 µg/mL
CCCCn1cc(C(=O)O)c(=O)c2cc(F)c(N)c([N+](=O)[O-])c21  IC50 (T47D; cell growth or viability, SRB): 0.6 µM and 0.59 µM
CC1=NN(CNc2ccc(C(=O)O)c(O)c2)C(=O)/C1=N/Nn1c(-c2ccccc2)nc2ccccc2c1=O  IC50 (NIH 3T3; cytotoxicity, MTT): 48.2 µM
O=C(Cc1ccccc1)NC(=S)Nc1nccs1  IC50 (normal human PBMC; cytotoxicity, MTT; 48 h): 133 ± 13.7 µM
CCCCn1cc(C(=O)O)c(=O)c2cc(F)c3c(nnn3-c3ccc(OC)cc3)c21  IC50 (T47D; cell growth, SRB; 72 h): 55 ± 1.66 µg/mL
[N-]=[N+]=NC1COC(=O)N1/N=C/c1ccc([N+](=O)[O-])o1 (stereo not shown)  IC50 (HepaRG; cell growth or viability, MTT; 24 h): > 100 µM
CCCCn1cc(C(=O)O)c(=O)c2cc(F)c3[nH]nnc3c21  IC50 (PANC-1; cell growth, SRB; 72 h): 60.6 ± 7.45 µg/mL
CCCCn1cc(C(=O)O)c(=O)c2cc(F)c(Nc3cc(OC)c(OC)c(OC)c3)c([N+](=O)[O-])c21  IC50 (PANC-1; cell growth, sulforhodamine B; 72 h): 48.6 ± 2.87 µg/mL
COc1cc2ncnc(Nc3ccc(F)c(Cl)c3)c2cc1NC(=O)/C=C/CN(C)C  IC50 (MDA-MB-435S, NIH3T3, SW-620; cytotoxicity, sulforhodamine B; 72 h): 0.7 to 2.2 µM

A few entries again:
O=C1OCC(NCCc2ccc(Cl)cc2)N1/N=C/c1ccc([N+](=O)[O-])o1 (stereo not shown)  IC50 (HepaRG; cell growth or viability, MTT; 24 h): > 100 µM
CCCCn1cc(C(=O)O)c(=O)c2cc(F)c3c(nnn3-c3cccc(OC)c3)c21  IC50 (T47D; cell growth, SRB; 72 h): 61.2 ± 6.21 µg/mL
